Assay results from different studies.
Lines come from different studies, so protocols differ. Values joined by “and” are separate records of one study, mostly repeats; a detail may differ. Numbers after ± are the reported error.
CASP8: Caspase-8 (CASP8, Homo sapiens, UniProt Q14790)
CASP10: Caspase-10 (CASP10, Homo sapiens, UniProt Q92851)

With `CO[C@@H]1[C@H](O)[C@@H](COP(=O)(O)OP(=O)([O-])C(F)(F)P(=O)(O)OP(=O)(O)OC[C@H]2O[C@@H](n3cnc4c(=O)[nH]c(N)nc43)[C@H](O)[C@@H]2O)O[C@H]1n1c[n+](C)c2c(O)nc(N)nc21` the hydrolysis was 4.7 ± 0.2% (DCPS (Homo sapiens, UniProt Q96C86); substrate, HPLC; concentration not given, 30 min).
`O=c1cc(Nc2ccccc2)c2ccccc2o1` gave an agonist activity of 4.44 ± 2.84% (ADRA1A (Homo sapiens, UniProt P35348); intracellular Ca2+ mobilization, agonist; COS-7; 500 µM; baseline: 3 µM ionomycin).
The ΔH of `Cc1cn(CC(=O)N(CC(=O)N[C@H]2CCC[C@@H]2N(CC(=O)N[C@H]2COC[C@@H]2N(CC(=O)N[C@H]2COC[C@@H]2N(CC(=O)N[C@H]2COC[C@@H]2N(CC(=O)NCCOCCOCC(N)=O)C(=O)Cn2cnc3c(N)ncnc32)C(=O)Cn2cc(C)c(=O)[nH]c2=O)C(=O)Cn2cnc3c(N)ncnc32)C(=O)Cn2cnc3c(=O)[nH]c(N)nc32)[C@H]2CCC[C@@H]2NC(=O)CN(C(=O)Cn2cnc3c(=O)[nH]c(N)nc32)[C@H]2CCC[C@@H]2NC(=O)CN(C(=O)Cn2cc(C)c(=O)[nH]c2=O)[C@H]2COC[C@@H]2NC(=O)CN(C(=O)Cn2cnc3c(N)ncnc32)[C@H]2COC[C@@H]2NC(=O)CN(C(=O)Cn2cnc3c(=O)[nH]c(N)nc32)[C@H]2COC[C@@H]2N)c(=O)[nH]c1=O` is reported as -76.4 ± 1.9 kcal/mol (complementary DNA; duplex formation, UV melting curve fit; PBS; 1 µM).
The DHEA metabolism of `O=c1c(-c2ccc(Cl)cc2)coc2cc(O)ccc12` is reported as 1.21 (HSD3B1 (Homo sapiens, UniProt P14060); [3H]-DHEA conversion; LNCaP; 0.1 µM, normalized to protein, unit not given; baseline: vehicle).
For `CCC1CC2C(C)=CC3C(=O)C=CCC3C=CC(C)=CC2C(=O)O1` (stereo not drawn), the fibril reduction was 51.1% (Microtubule-associated protein tau, K18 fragment, aggregated (MAPT, Homo sapiens, UniProt P10636); fibril dissociation, thioflavin T fluorescence; 1000 µM, tau K18 fibrils pre-formed 3 days, then 3 days more; baseline: untreated fibrils same duration).
`CC(=O)N[C@H](C(=O)N[C@@H](CCCC(=O)O)C(=O)N[C@@H](CCC1CCCCC1)C(=O)N[C@@H](CC(=O)O)C(=O)COC(=O)c1c(C)cccc1C)C(C)(C)C` has a kinact/KI of 1.43e+06 M⁻¹ s⁻¹ (CASP8; enzyme activity, inhibitor).
`CC[C@H](C)[C@H](NC(=O)[C@H](CCC(N)=O)NC(=O)[C@@H](NC(=O)[C@@H]1CCCN1[C@@H]1CN(C(=O)[C@H](CCCCN)NC(=O)[C@H](CC(N)=O)NC(=O)[C@@H](NC(=O)[C@@H](NC(=O)[C@H](CCC(N)=O)NC(=O)[C@@H](N)C(C)C)[C@@H](C)CC)[C@@H](C)CC)CC[C@H]1NS(=O)(=O)c1ccc(C)cc1)C(C)C)C(=O)N[C@H](C(=O)N[C@@H](Cc1ccc(O)cc1)C(=O)N[C@@H](CCCCN)C(N)=O)C(C)C` has a fibrillization half-time of 121 ± 24% (Microtubule-associated protein tau, 2N4R isoform (MAPT, Homo sapiens, UniProt P10636, del597-597); ThT fluorescence; 0.1-fold over protein, added: tau ΔK280 10 µM; baseline: untreated).
With `CC(=O)N[C@@H](Cc1c[nH]c2ccccc12)C(=O)N[C@@H](CCCNC(=N)N)C(=O)N[C@@H](CO)C(=O)N[C@@H](CC(=O)O)C(=O)COC(=O)c1c(C)cccc1C` the kinact/KI was 28400 M⁻¹ s⁻¹ (CASP10; enzyme activity, inhibitor).
The ΔG of `Cc1cn(CC(=O)N(CCNC(=O)CN(CCNC(=O)CN(CCNC(=O)CN(CCNC(=O)CN(CCNC(=O)CN(CCNC(=O)CN(CCNC(=O)CN(CCN)C(=O)Cn2cnc3c(=O)[nH]c(N)nc32)C(=O)Cn2cnc3c(N)ncnc32)C(=O)Cn2cc(C)c(=O)[nH]c2=O)C(=O)Cn2cnc3c(=O)[nH]c(N)nc32)C(=O)Cn2cc(C)c(=O)[nH]c2=O)C(=O)Cn2cnc3c(=O)[nH]c(N)nc32)C(=O)Cn2cnc3c(N)ncnc32)CC(=O)NCCN(CC(=O)NCCOCCOCC(N)=O)C(=O)Cn2cnc3c(N)ncnc32)c(=O)[nH]c1=O` is reported as -12.4 ± 0.2 kcal/mol (complementary DNA; duplex formation, UV melting curve fit; PBS; 1 µM, 298 K).
`CCCCCC(O)/C=C/C=O` (stereo not drawn) — result for “isoTOP-ABPP competition ratio”: 1.8 (Trafficking protein particle complex subunit 5 (TRAPPC5, Homo sapiens, UniProt Q8IUR0); competitive isoTOP-ABPP, measured: TRAPPC5 cysteine peptide; Ramos soluble proteome; 100 µM, added: iodoacetamide probe; baseline: DMSO over compound-treated, higher = stronger cysteine blockade).
`C#CCCCCNC(=O)c1ccc(N(C(=O)C=C)c2ccc(Br)cc2)cc1` gave a reactivity ratio of 0.682 (Cytoskeleton-associated protein 4 (Homo sapiens, UniProt Q07065); mass spectrometry profiling; H460 cell lysate; 100 µM over 10 µM, UniProt Q07065; baseline: high over low concentration).
For `CSCC[C@@H]1NC(=O)[C@H](C(C)C)NC(=O)[C@H](CCCNC(=N)N)NC(=O)[C@@H]2CCCN2C(=O)CNC(=O)[C@@H](NC(=O)CNC(=O)[C@H](CO)NC(=O)CNC(=O)[C@H](CO)NC(=O)CCCC[C@@H]2SC[C@@H]3NC(=O)N[C@@H]32)CSSC[C@@H](C(N)=O)NC(=O)[C@@H]2CCCN2C(=O)CNC(=O)[C@H](CCC(=O)O)NC(=O)[C@H](CC(=O)O)NC(=O)[C@H](CC(=O)O)NC(=O)CNC(=O)[C@H](CC(C)C)NC(=O)[C@H](Cc2c[nH]cn2)NC(=O)[C@H](CC(C)C)NC(=O)CNC(=O)[C@H](Cc2c[nH]cn2)NC1=O`, the koff was 0.0068 s⁻¹ (Col1a1/Col1a2 (Rattus norvegicus, UniProt P02454+P02466); binding, bio-layer interferometry; biotinylated peptide on streptavidin biosensor; added: collagen 0 to 8 µM).
For `CN(Cc1cc(C2CC2)on1)C(=O)c1cccc(-c2ccc3c(c2)CCO3)c1`, the reaction rate was 0.00102 a.u. (Acetyl-CoA synthetase (Cryptococcus neoformans, UniProt J9VFT1); enzyme activity, inhibitor, coupled pyrophosphate; 3.91 µM; higher is more activity).
The kinact/KI of `CC(=O)N[C@@H](Cc1c[nH]c2ccccc12)C(=O)N[C@@H](CCCCN)C(=O)N[C@@H](CCC(=O)O)C(=O)N[C@@H](CC(=O)O)C(=O)COC(=O)c1c(C)cccc1C` is reported as 14500 M⁻¹ s⁻¹ (CASP10; enzyme activity, inhibitor).
`CC(=O)N1c2ccc(-c3ccc(CNC(=O)c4cn5cc(-c6cnc(N)nc6)nc(N6CCOCC6)c5n4)cc3)cc2CC[C@@H]1C` has a remaining binding of 86% (Transcription intermediary factor 1-alpha, PHD-bromodomain (TRIM24, Homo sapiens, UniProt O15164); BROMOscan; 10 µM, PHD-bromodomain construct).
`CC(=O)N[C@@H](CC(C)C)C(=O)N[C@@H](CCC(=O)O)C(=O)N[C@H](C(=O)N[C@@H](CC(=O)O)C(=O)COC(=O)c1c(C)cccc1C)C(C)C` gave a kobs/[I] of 1.95e+06 M⁻¹ s⁻¹ (CASP8; inhibitor; recombinant enzyme).
`CN(C)CCCSC(=S)N1CCN(C(=O)/C=C/c2coc3ccccc3c2=O)CC1`: “normalised MST response” -0.00155 (Nucleoprotein (N, Tomato spotted wilt virus, UniProt P25999); binding, microscale thermophoresis; 0.2441 µM; dose series).
For `CC(=O)N[C@@H](CC(=O)O)C(=O)N[C@@H](CCCC(=O)O)C(=O)N[C@@H](CC(C)C)C(=O)N[C@@H](CC(=O)O)C(=O)COC(=O)c1c(C)cccc1C`, the kobs/[I] was 260000 M⁻¹ s⁻¹ (CASP10; inhibitor; recombinant enzyme).
For `C#CCOC(=O)[C@]1(C)C=C(C(=O)OC(C)(C)C)C(=O)CC1`, “normalized kinase activity” read 1.03 (MAPK8 (Homo sapiens, UniProt P45983); enzyme activity, D-SENSOR; 0.1829 µM, mean of replicates).
Under “melting temperature shift”, `C=CC(=O)N1CCCC(n2c(=O)c3ncccc3n(Cc3ccc(Oc4ccccc4)cc3)c2=O)C1` (stereo not drawn) is recorded as -0.455 (DPP3 (Homo sapiens, UniProt Q9NY33); thermal proteome profiling; cell proteome; unit not given; baseline: vehicle).
With `CC(=O)N[C@@H](CC(=O)O)C(=O)N[C@@H](CCC(=O)O)C(=O)N[C@H](C(=O)N[C@@H](CC(=O)O)C(=O)COC(=O)c1c(C)cccc1C)[C@@H](C)OCc1ccccc1` the kinact/KI was 167000 M⁻¹ s⁻¹ (CASP10; enzyme activity, inhibitor).
The cAMP luminescence of `CC(C)Oc1cc(Cl)ccc1CNc1cc(-c2ccccc2)nc2ncnn12` is reported as 32600 a.u. and 33200 a.u. and 51200 a.u. and 44900 a.u. (GPR3 (Homo sapiens, UniProt P46089, V196W); cAMP level, cAMP GloSensor; 300 nM; higher = more cAMP).
`CC(=O)N[C@@H](CC(=O)O)C(=O)N[C@@H](CCC(=O)O)C(=O)N[C@H](C(=O)N[C@@H](CC(=O)O)C(=O)COC(=O)c1c(C)cccc1C)C(C)C` gave a kinact/KI of 889000 M⁻¹ s⁻¹ (CASP8; enzyme activity, inhibitor).
The remaining protein of `CC1(C)C[C@@H](Nc2cccc(-c3sc(C(=O)O)c(OCC(=O)O)c3Cl)c2)CCN1S(=O)(=O)Cc1cccc(NC(=O)CN2CCC(c3ccc4c(c3)oc(=O)n4C3CCC(=O)NC3=O)CC2)c1` (stereo partly drawn) is reported as 11.4% and 9.5% (Tyrosine-protein phosphatase non-receptor type 1 (Mus musculus, UniProt P35821); degrader, Western blot; B16-F10; 1 µM).

Excerpt of the above:
For `CCC1CC2C(C)=CC3C(=O)C=CCC3C=CC(C)=CC2C(=O)O1` (stereo not drawn), the fibril reduction was 51.1% (Microtubule-associated protein tau, K18 fragment, aggregated (MAPT, Homo sapiens, UniProt P10636); fibril dissociation, thioflavin T fluorescence; 1000 µM, tau K18 fibrils pre-formed 3 days, then 3 days more; baseline: untreated fibrils same duration).
The kinact/KI of `CC(=O)N[C@@H](Cc1c[nH]c2ccccc12)C(=O)N[C@@H](CCCCN)C(=O)N[C@@H](CCC(=O)O)C(=O)N[C@@H](CC(=O)O)C(=O)COC(=O)c1c(C)cccc1C` is reported as 14500 M⁻¹ s⁻¹ (CASP10; enzyme activity, inhibitor).
`CC(=O)N1c2ccc(-c3ccc(CNC(=O)c4cn5cc(-c6cnc(N)nc6)nc(N6CCOCC6)c5n4)cc3)cc2CC[C@@H]1C` has a remaining binding of 86% (Transcription intermediary factor 1-alpha, PHD-bromodomain (TRIM24, Homo sapiens, UniProt O15164); BROMOscan; 10 µM, PHD-bromodomain construct).
